Measured values collected from several papers.
Compare with care: the assays were run in different laboratories.
EGFR: Epidermal growth factor receptor (EGFR, Homo sapiens, UniProt P00533)

Compound	target	effect on	mode	technique	medium	tested at	inhibition [%]
CS(C)(=O)=Nc1ccc(-c2ccc(-c3nc4cc(O[C@@H]5CO[C@H]6[C@@H]5OC[C@H]6O)[nH]c4cc3F)cc2)cc1	EGFR	enzyme activity	inhibitor			10 µM	-12
C=CC(=O)Nc1cc(-c2nn(C3CCC(N4CCN(C(C)=O)CC4)CC3)c3ncnc(N)c23)ccc1Oc1ccccc1 (centres unmarked)	EGFR		inhibitor	KiNativ profiling	biochemical	2 µM	24.9
O=C(CN1CN(c2ccccc2)C2(CCN(C(=O)c3cnc4[nH]ncc4c3)CC2)C1=O)NCC(F)(F)F	EGFR (Homo sapiens, UniProt P00533, L858R/T790M)		inhibitor			concentration not given	< 50
C[C@H](NCc1ccc(-c2ccc(C(F)(F)F)cc2)cc1)C(N)=O	EGFR	cell-free assay		competition with immobilised ligand		1 µM	0
CC(C)[C@H]1NC(=O)C[C@H]2/C=C/CCSSC[C@@H](NC1=O)C(=O)N[C@H](Cc1cccc3ccccc13)C(=O)NCC(=O)O2	EGFR (Homo sapiens, UniProt P00533, del746-750/T790M)	enzyme activity	inhibitor			10 µM	-0.9
N[C@H](C(=O)N1CCCC1)C1CCN(c2nccc3c(-c4ncc(Cl)cc4Cl)cccc23)CC1	EGFR	cell-free assay				10 µM	6
O=C(O)c1ccccc1/C=N/Nc1nc(-c2ccccc2Cl)cs1	EGFR	enzyme activity	inhibitor			1 µM	-1.7
CN[C@@H]1[C@H](O)[C@H](NC)[C@H]2O[C@]3(O)[C@H](O[C@@H]2[C@H]1O)O[C@H](C)C[C@H]3NC(=O)Cc1ccc(Cl)cn1	EGFR					10 µM	-15

Excerpt of the above:
Compound	target	effect on	mode	technique	medium	tested at	inhibition [%]
CN[C@@H]1[C@H](O)[C@H](NC)[C@H]2O[C@]3(O)[C@H](O[C@@H]2[C@H]1O)O[C@H](C)C[C@H]3NC(=O)Cc1ccc(Cl)cn1	EGFR					10 µM	-15
